Published values collected from several papers.
Protocols differ between the studies behind these lines. “And” joins repeats or separate records; there may be more than shown. ± marks the error that the study gave.
Adhesin FmlH lectin domain: Adhesin FmlH, lectin domain (Escherichia coli, UniProt Q1RBS0)
Palmitoyl-protein thioesterase 1: Palmitoyl-protein thioesterase 1 (Homo sapiens, UniProt P50897)
Luciferin 4-monooxygenase: Luciferin 4-monooxygenase (Photinus pyralis, UniProt P08659)
SLC6A2: Sodium-dependent noradrenaline transporter (SLC6A2, Homo sapiens, UniProt P23975)
DRD1: D(1A) dopamine receptor (DRD1, Homo sapiens, UniProt P21728)
MAP3K2: Mitogen-activated protein kinase kinase kinase 2 (MAP3K2, Homo sapiens, UniProt Q9Y2U5)
Scn2a: Sodium channel protein type 2 subunit alpha (Scn2a, Rattus norvegicus, UniProt P04775)
HTR1E: 5-hydroxytryptamine receptor 1E (HTR1E, Homo sapiens, UniProt P28566)

The inhibition of `Cn1cncc1[C@@](N)(c1ccc(Cl)cc1)c1ccc2c(c1)c(-c1cccc(Cl)c1)cc(=O)n2C` is reported as 74% (Protein farnesyltransferase (Homo sapiens, UniProt P49354+P49356); enzyme activity, inhibitor, scintillation proximity; leukaemia patients, leukaemic blasts; 200 mg/m^2, 10 days, median; reference: pretreatment).
For `COc1c(O)c(C)cc2c1C(=O)c1c(cc(O)c(O)c1O)C2=O`, the viability was 94.1 ± 11.9% (HK-2 co-cultured with HepaRG; MTT; 133.33 µM, 24 h; reference: untreated control).
The inhibition of `O=c1ccc2nc3ccc(O[C@@H]4O[C@H](CO)[C@H](O)[C@H](O)[C@H]4O)cc3oc-2c1` is reported as 80.4 ± 6.6% (Adhesin FmlH lectin domain; binding to desialylated mucin, ELISA competition; UPEC UTI89; 100 µM).
For `CCN(CC)C(=O)/C(C#N)=C/c1cc(O)c(O)c([N+](=O)[O-])c1`, the inhibition was 61.8% (Palmitoyl-protein thioesterase 1; Spectrum Collection screen; concentration not given, added: substrate 20 µM).
With `CC1CCCN(c2nc(C(=O)NC3CC3)cs2)C1` (stereo not shown) the inhibition was 39% (Luciferin 4-monooxygenase; luciferase luminescence, inhibitor; cell-free; 50 µM, counter-screen).
For `CN(C)/N=N/c1[nH]cnc1C(N)=O`, the inhibition was 70.9% (Palmitoyl-protein thioesterase 1; Spectrum Collection screen; concentration not given, added: substrate 20 µM).
For `CCCN(O)N=Nc1ccc(S(=O)(=O)Nc2nccs2)cc1`, the inhibition was 30 ± 0.16% (α-glucosidase, rat intestine; enzyme activity; 120 µg/mL, added: 4-nitrophenyl α-D-glucopyranoside).
For `CCN1/C(=C/C(C)=O)Sc2ccc(F)cc21`, the inhibition was 15.3% (SLC6A2; 10 µM).
For `Cc1ccc(OC[C@@H]2CN(CCN3CCc4ccccc43)CCO2)cn1`, the inhibition was 44.1% (DRD1; radioligand binding; concentration not given, added: [3H]SCH23390).
`Cc1ncc2c(c1-c1noc(C3CN(C(C)C)C3)n1)CCNC2` has an inhibition of 3.03% (Luciferin 4-monooxygenase; luciferase luminescence, inhibitor; cell-free; 50 µM, counter-screen).
For `COc1cc(C(=O)NS(=O)(=O)c2ccccc2C)ccc1Cc1cn(C)c2ccc(NC(=O)OC3CCCC3)cc12`, the inhibition was 88.1% (LRRC8A/LRRC8C (Homo sapiens, UniProt Q8IWT6+Q8TDW0, L134K/L136K); ion current, inhibitor, whole-cell patch clamp; HCT116 LRRC8 knockout, transfected; 100 µM, +100 mV, mutant L134K/L136K).
For `CC[C@@H]1[C@H](F)C(=O)N[C@@H]1COc1nccc2cc(C(N)=O)c(OC)cc12`, the inhibition was -0.4% (MAP3K2; ATP-site probe binding, ActivX profiling; THP-1 cell lysate; 0.01 mM, Lys1 site).
`Cc1nn(-c2nc3c(F)cc(F)cc3s2)c(O)c1C(c1ccccc1C(F)(F)F)c1c(C)nn(-c2nc3c(F)cc(F)cc3s2)c1O` has an inhibition of 27.6% (Cyclic GMP-AMP synthase, catalytic domain; with DNA (CGAS, Homo sapiens, UniProt Q8N884); cGAS phase separation, inhibitor; 0.391 µM).
The inhibition of `CCN(O)N=Nc1ccc(S(=O)(=O)Nc2nccs2)cc1` is reported as 45 ± 4.16% (α-glucosidase, rat intestine; enzyme activity; 180 µg/mL, added: 4-nitrophenyl α-D-glucopyranoside).
For `CN(C(=O)n1cnc(-c2ccc[n+]([O-])c2)c1)C1CCCCC1`, the inhibition was -9.61% (GABRA1/GABRG2, benzodiazepine site (Bos taurus, UniProt P08219+P22300); 10 µM).
With `CCN(O)N=Nc1ccc(S(=O)(=O)Nc2onc(C)c2C)cc1` the inhibition was 4.5 ± 2.34% (α-glucosidase, rat intestine; enzyme activity; 20 µg/mL, added: 4-nitrophenyl α-D-glucopyranoside).
Under inhibition, `FC(F)(F)C1=C/C(=C/CCCCCCOCc2ccccc2)c2cc3c(cc21)OCO3` is recorded as “no effect” (P4HB (Homo sapiens, UniProt P07237); enzyme activity, inhibitor, insulin reduction; concentration not given, biochemical).
`Cn1cc(-c2cnc3ccc(NC(=O)Nc4ccc(F)c(Br)c4)cc3n2)cn1` has an inhibition of 3.7% (MAP3K2; kinase binding, KiNativ profiling, measured: Lys1 peptide; PANC-1 lysate; 5 µM).
`C[C@@H](O)[C@H](NC(=O)[C@H](CS)NC(=O)[C@@H](N)CO)C(=O)O` has an inhibition of 0% (GAPDH (Homo sapiens, UniProt P04406); protein aggregation, turbidity; 30 µM).
For `COc1ccc2c(c1)C(=O)N(CCCN1CCN(c3ccccc3OC)CC1)C2`, the inhibition was 49.5% (DRD1; radioligand binding; concentration not given, added: [3H]SCH23390).
The inhibition of `Cc1ccc(C(=O)Nc2ccc3ccccc3c2)o1` is reported as 4.56% and 0.77% and 3.26% and 6.3% and 6.67% (Scn2a; ion current, inhibitor, whole-cell patch clamp; 10 µM).
`NC/C(=C\F)COc1cccc(Cn2c(=S)[nH]c(=O)c3[nH]cnc32)c1` has an inhibition of 99.8% (AOC3 (Homo sapiens, UniProt Q16853); H2O2 production, Amplex Red; 1.111 µM, recombinant human enzyme).
`Cc1cc(NS(=O)(=O)c2ccc(N=NN(C)O)cc2)no1` gave an inhibition of 12.5 ± 1.38% (α-glucosidase, rat intestine; enzyme activity; 20 µg/mL, added: 4-nitrophenyl α-D-glucopyranoside).
`O=C(NO)c1ccc(CN2CCCCc3ccccc32)c(F)c1` gave an inhibition of -61.9% (SLC6A2; radioligand binding, PDSP radioligand binding; 10 µM).
`COc1cccc(OC[C@H]2CN(CCN3CCc4ccccc43)CCO2)c1` has an inhibition of 37.6% (DRD1; radioligand binding; concentration not given, added: [3H]SCH23390).
With `O=C(Cn1cncn1)N1CCc2onc(-c3cccc4ccccc34)c2C1` the inhibition was 1.3% (Luciferin 4-monooxygenase; luciferase luminescence, inhibitor; cell-free; 50 µM, counter-screen).
With `Cc1ncccc1OC[C@H]1CN(CCN2CCc3ccccc32)CCO1` the inhibition was -20% (HTR1E; radioligand binding; concentration not given, added: [3H]5-HT).
`CCN1CCN(Cc2ccc(NC(=O)c3ccc(C)c(/C=C/c4cnc5[nH]ccc5c4OC)c3)cc2C(F)(F)F)CC1` has an inhibition of -19.7% (KSR1 (Homo sapiens, UniProt Q8IVT5); A-375; 0.5 µM).
`CSc1nccc(-c2cccc(-c3cc[nH]n3)c2)n1` gave an inhibition of 68.5% (Luciferin 4-monooxygenase; luciferase luminescence, inhibitor; cell-free; 50 µM, counter-screen).
`CCCOc1cc2c(cc1O)[C@@H]1Cc3c(Br)cc(O)c(OCC(F)(F)F)c3CN1CC2` gave an inhibition of 91 ± 2% (DRD1; cAMP level, antagonist, TR-FRET; U2OS expressing human D1R; concentration not given, added: dopamine 10 nM).
The inhibition of `CC(=O)Nc1ncc([N+](=O)[O-])s1` is reported as 65.1% (Palmitoyl-protein thioesterase 1; Spectrum Collection screen; concentration not given, added: substrate 20 µM).
The inhibition of `CC(C)c1noc2ncc(C(=O)c3ccccc3O)cc12` is reported as 6.3% (Scn2a; ion current, whole-cell patch-clamp; 10 µM, rNav1.2).
For `O=C1C=C2CC3(O)COc4c(ccc(O)c4O)C3=C2C=C1O` (stereo not shown), the inhibition was 40.9% (Luciferin 4-monooxygenase; luciferase luminescence, inhibitor; cell-free; 50 µM, counter-screen).
With `CN1CCN(c2cc(-c3ccncc3)c(-c3ccc4ccccc4c3)nn2)CC1` the inhibition was 4.4% (BDKRB2 (Homo sapiens, UniProt P30411); antagonist, FLIPR; 10 µM).
`Cc1noc(NS(=O)(=O)c2ccc(N=NN(C)O)cc2)c1C` gave an inhibition of 33 ± 0.013% (α-glucosidase, rat intestine; enzyme activity; 180 µg/mL, added: 4-nitrophenyl α-D-glucopyranoside).
For `CCc1oc2ccccc2c1C(=O)c1cc(Br)c(O)c(Br)c1`, the inhibition was 55.4% and 67.7% and 59% and 63.1% (SLC22A12 (Homo sapiens, UniProt Q96S37, S35A); urate uptake; HEK293T; 0.5 µM, 10 min, 37 °C, added: 200 µM [14C]urate).
With `COc1ccc(F)cc1C(=O)NCc1ccc(-c2nn([C@@H](C)C(F)(F)F)c(N)c2C(N)=O)cc1` the inhibition was 19.9% (STE20-related kinase adapter protein beta (Homo sapiens, UniProt Q9C0K7); target engagement, competitive chemoproteomics; human PBMCs; 1 µM).
For `COc1ccccc1N1CCN(CCCCN2CCc3ccccc3C2=O)CC1`, the inhibition was -14.7% (HTR1E; radioligand binding; concentration not given, added: [3H]5-HT).
The inhibition of `CCCN(O)N=Nc1ccc(S(=O)(=O)Nc2onc(C)c2C)cc1` is reported as 37.5 ± 0.09% (α-glucosidase, rat intestine; enzyme activity; 180 µg/mL, added: 4-nitrophenyl α-D-glucopyranoside).
`Clc1cccc(OC[C@@H]2CN(CCN3CCc4ccccc43)CCO2)c1` gave an inhibition of -16.4% (HTR1E; radioligand binding; concentration not given, added: [3H]5-HT).
The inhibition of `O=[N+]([O-])c1ccc(O[C@@H]2O[C@H](CO[C@@H]3O[C@H](CO)[C@H](O)[C@H](O)[C@H]3O)[C@H](O)[C@H](O)[C@H]2O)cc1` is reported as 19.4 ± 1.6% (Adhesin FmlH lectin domain; binding to desialylated mucin, ELISA competition; UPEC UTI89; 100 µM).
With `COc1cc(C)c(/C=C/C(C)=C/C=C/C(C)=C/C(=O)O)c(C)c1C` the inhibition was 65.4% (Palmitoyl-protein thioesterase 1; Spectrum Collection screen; concentration not given, added: substrate 20 µM).
`CC(NC(=O)c1cccc(-c2ccc(N3CCCCCC3)nc2)c1)c1cccnc1` (stereo not shown) gave an inhibition of -2.61% (Luciferin 4-monooxygenase; luciferase luminescence, inhibitor; cell-free; 50 µM, counter-screen).
`O=C(CN1CCO[C@@H](COc2ccccn2)C1)N1CCc2ccccc21` has an inhibition of -4.6% (HTR1E; radioligand binding; concentration not given, added: [3H]5-HT).
For `CCCN(O)N=Nc1ccc(S(=O)(=O)Nc2cc(C)on2)cc1`, the inhibition was 62.5 ± 0.5% (α-glucosidase, rat intestine; enzyme activity; 300 µg/mL, added: 4-nitrophenyl α-D-glucopyranoside).
For `COc1ccc(Cl)cc1S(=O)(=O)Nc1cncc(C(N)=O)c1`, the inhibition was over 75% (Alkaline phosphatase, tissue-nonspecific isozyme (Mus musculus, UniProt P09242); enzyme activity; mouse, plasma; oral, 10 mg/kg single dose, 8 h).
For `COc1ccc(S(=O)(=O)N(CC(=O)NO)CC(C)C)cc1`, the inhibition was 35% (MMP2 (Homo sapiens, UniProt P08253); fluorometric; 0.01 ng/mL).
With `CCN1CCN(Cc2ccc(NC(=O)c3ccc(C)c(-c4ccc5nc(NC(=O)C6CC6)cn5n4)c3)cc2C(F)(F)F)CC1` the inhibition was 85.5% (JAK2 (Homo sapiens, UniProt O60674, V617F); kinase activity, inhibitor, KiNativ profiling; SET-2; 5 µM).
For `Cc1noc(NS(=O)(=O)c2ccc(N=NN(O)c3ccccc3)cc2)c1C`, the inhibition was 15 ± 0.26% (α-glucosidase, rat intestine; enzyme activity; 60 µg/mL, added: 4-nitrophenyl α-D-glucopyranoside).
The inhibition of `CCCC1=NN(c2nc3ccccc3s2)C(=O)/C1=C(\C)Nc1ccccc1CC` is reported as 6.99% (Luciferin 4-monooxygenase; luciferase luminescence, inhibitor; cell-free; 50 µM, counter-screen).
For `COc1cccc(OC[C@@H]2CN(CC(=O)N3CCc4ccccc43)CCO2)c1`, the inhibition was -11.4% (HTR1E; radioligand binding; concentration not given, added: [3H]5-HT).
`CC(CN1c2ccccc2Sc2ccccc21)N(C)C` (stereo not shown) gave an inhibition of 63.7% (Palmitoyl-protein thioesterase 1; Spectrum Collection screen; concentration not given, added: substrate 20 µM).

Some of these lines once more:
With `CC1CCCN(c2nc(C(=O)NC3CC3)cs2)C1` (stereo not shown) the inhibition was 39% (Luciferin 4-monooxygenase; luciferase luminescence, inhibitor; cell-free; 50 µM, counter-screen).
For `CN(C)/N=N/c1[nH]cnc1C(N)=O`, the inhibition was 70.9% (Palmitoyl-protein thioesterase 1; Spectrum Collection screen; concentration not given, added: substrate 20 µM).
For `CCCN(O)N=Nc1ccc(S(=O)(=O)Nc2nccs2)cc1`, the inhibition was 30 ± 0.16% (α-glucosidase, rat intestine; enzyme activity; 120 µg/mL, added: 4-nitrophenyl α-D-glucopyranoside).
For `CCN1/C(=C/C(C)=O)Sc2ccc(F)cc21`, the inhibition was 15.3% (SLC6A2; 10 µM).
For `Cc1ccc(OC[C@@H]2CN(CCN3CCc4ccccc43)CCO2)cn1`, the inhibition was 44.1% (DRD1; radioligand binding; concentration not given, added: [3H]SCH23390).
